Assay results collected from several papers.
Numbered parts are unrelated; each lists some results of a single study.

Set 1 — technique: protein-binding microarray; molecule type: double-stranded DNA, one strand shown; sample: in vitro; tested at: 940 nM top; setting: 60-bp whole probe; added: salmon DNA 0.4 mg/ml; relative to: random background probes; reading: higher = stronger binding; all sequences stand within: GCCTAGCAC … GTCTTGATTCGCTTGACGCTGCTG
Target: Interferon regulatory factor 5, full length, phosphomimetic (IRF5, Homo sapiens, UniProt Q13568-2, residues 1-514, S451D/S453D/S456D/S462D)
| Sequence | fitted relative affinity |
| --- | --- |
| GACAGTTTCGGTATCGGGACGTGCTAG | 14.7 z-score |
| TTAGGAATGGGGTTTCGGTTAGTGCTA | 5.81 z-score |
| TCAAGTTTATTTATTTTACTGTGCTAG | 0.108 z-score |
| TACAGCAGGGAGGGAGGCACGTGCTAG | -0.321 z-score |
| TCAGTTCTCAGACTGGGACTGTGCTAG | 0.346 z-score |

Set 2 — technique: protein binding microarray; molecule type: double-stranded DNA, one strand shown; sample: in vitro; tested at: not given; relative to: not given; reading: higher = stronger binding
Target: Histone acetyltransferase KAT6A, winged helix 1, GST fusion (KAT6A, Homo sapiens, UniProt Q92794, residues 1-85)
Setting: 8-mer, flanks averaged, mean of 2 arrays, mostly near background
Residues (chain): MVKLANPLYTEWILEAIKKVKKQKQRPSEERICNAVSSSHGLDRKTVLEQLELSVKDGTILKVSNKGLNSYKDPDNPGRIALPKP
| Sequence | E-score |
| --- | --- |
| GCCTGCGC | 0.31 |
| CCGACTAC | 0.17 |
| TCACTGCA | -0.175 |
| CTTTCTGA | -0.186 |
| AATAATGA | -0.0311 |
| GAGCCTCA | 0.0915 |
| AAACTTCT | -0.0989 |
| CTGTAACC | 0.0564 |

Set 3 — technique: universal PBM; molecule type: double-stranded DNA, one strand shown; sample: in vitro; tested at: 600 nM; reading: higher = stronger binding
Target: Sal-like protein 4, full length isoform A (SALL4, Homo sapiens, UniProt Q9UJQ4, residues 1-1053)
Sequence of UniProt Q9UJQ4 (whole entry, looked up): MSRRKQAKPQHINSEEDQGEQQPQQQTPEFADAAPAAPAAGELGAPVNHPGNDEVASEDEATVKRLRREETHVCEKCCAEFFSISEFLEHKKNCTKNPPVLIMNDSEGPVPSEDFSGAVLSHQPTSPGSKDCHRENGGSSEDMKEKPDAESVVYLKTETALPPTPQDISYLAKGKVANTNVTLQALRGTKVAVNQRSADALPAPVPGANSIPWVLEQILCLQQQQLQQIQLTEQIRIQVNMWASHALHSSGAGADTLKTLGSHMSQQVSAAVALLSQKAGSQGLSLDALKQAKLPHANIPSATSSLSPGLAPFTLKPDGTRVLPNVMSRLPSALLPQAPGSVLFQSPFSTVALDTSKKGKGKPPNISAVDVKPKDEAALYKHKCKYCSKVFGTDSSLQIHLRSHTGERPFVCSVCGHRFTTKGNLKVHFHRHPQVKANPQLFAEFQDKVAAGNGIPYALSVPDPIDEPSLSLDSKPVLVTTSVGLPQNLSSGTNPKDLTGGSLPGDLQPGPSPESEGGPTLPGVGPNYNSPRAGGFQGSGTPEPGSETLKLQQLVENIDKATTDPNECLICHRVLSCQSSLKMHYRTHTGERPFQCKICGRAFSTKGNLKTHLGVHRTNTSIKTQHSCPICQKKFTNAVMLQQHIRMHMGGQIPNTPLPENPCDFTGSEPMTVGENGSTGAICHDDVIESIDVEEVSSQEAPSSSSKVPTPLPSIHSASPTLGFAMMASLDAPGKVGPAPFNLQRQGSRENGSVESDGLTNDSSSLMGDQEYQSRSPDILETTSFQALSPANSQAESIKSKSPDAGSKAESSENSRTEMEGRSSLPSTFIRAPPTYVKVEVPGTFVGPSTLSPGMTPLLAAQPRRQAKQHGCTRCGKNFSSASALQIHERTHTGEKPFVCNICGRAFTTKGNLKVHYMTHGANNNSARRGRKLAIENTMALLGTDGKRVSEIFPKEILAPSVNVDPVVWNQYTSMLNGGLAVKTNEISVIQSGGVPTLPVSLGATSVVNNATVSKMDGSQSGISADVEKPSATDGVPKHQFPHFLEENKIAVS
Setting: 8-mer, flanks averaged, mean of replicates
| Sequence | E-score |
| --- | --- |
| ACTTTATC | 0.217 |
| ATTCGATA | 0.283 |
| GCTTCTAC | -0.0233 |
| TCCTTAAA | 0.185 |
| GCCTGGTA | -0.193 |
| CACAGTAA | 0.114 |
| GGCCTCAC | -0.318 |

Mixed results
| Molecule | target | test | test system | conditions | how to read | endpoint | result |
| --- | --- | --- | --- | --- | --- | --- | --- |
| PhoQ, residues 284 288 289 292 302 303 SVHLDV | PhoP, residues 12 14 15 18 19 YHFSH (Escherichia coli, UniProt P23836) | Sort-seq, measured: YFP reporter | E. coli | PhoQ-PhoP variant library, added: 10 µM Mg2+ | relative to: high Mg2+ state, higher = stronger signaling | fold induction | 1.79 |

Some of these lines once more (set 3):
| Sequence | E-score |
| --- | --- |
| GGCCTCAC | -0.318 |
| GCTTCTAC | -0.0233 |
| CACAGTAA | 0.114 |
